Measured values pooled from the literature.
Lines come from different studies, so protocols differ.
Medium: plasma
Route: oral

With `CC(C)(Sc1ccncc1-c1ccc(C#N)c2ccccc12)C(=O)O` the Tmax was 1.75 h (male human; 10 mg, single dose, fasted).
With `C#C[C@]1(CO)O[C@@H](n2cnc3c(N)nc(F)nc32)C[C@@H]1O` the Tmax was 0.5 h (human; 5 mg, single dose, fasted).
`Cc1[nH]c2ccccc2c1CCNCc1ccc(/C=C/C(=O)NO)cc1` has a Tmax of 4 h (human; 20 mg, single dose, fed).
With `C[C@H]1CO[C@@H]2Cn3cc(C(=O)NCc4ccc(F)cc4F)c(=O)c(O)c3C(=O)N12` the Tmax was 3 h (human; 30 mg, single dose, fasted).
The Tmax of `COc1cc2ncnc(Nc3ccc(F)c(Cl)c3)c2cc1OCCCN1CCOCC1` is reported as 4.6 h (human; 250 mg).
With `C[C@H](N)C(=O)N1C[C@H](CCCB(O)O)[C@](N)(C(=O)O)C1` the Tmax was 4 h (human; 100 mg twice daily, multiple doses, patients).
`CS(=O)(=O)n1cc2c(n1)CN([C@H]1CO[C@H](c3cc(F)ccc3F)[C@@H](N)C1)C2` has a Tmax of 4 h (male human; 10 mg, multiple doses, healthy volunteers).
`Cn1ncc(Cl)c1-c1cc(C(=O)N[C@H](CN)Cc2ccc(F)c(F)c2)oc1Cl` gave a Tmax of 0 to 4 h (human; 150 mg, multiple doses, once daily, patients).
For `CN(C)Cc1c(C(=O)NCCOc2ccc(C(=O)NO)cc2)oc2ccccc12`, the Tmax was 1 h (human; 60 mg, single dose, patients).
With `CCOc1ccc(Cc2cc([C@]34OC[C@](CO)(O3)[C@@H](O)[C@H](O)[C@H]4O)ccc2Cl)cc1` the Tmax was 1 h (human; 15 mg, single dose, healthy volunteers).
`C=C(C)[C@@H]1CC[C@]2(NCCN3CCS(=O)(=O)CC3)CC[C@]3(C)[C@H](CC[C@@H]4[C@@]5(C)CC=C(C6=CC[C@@](CF)(C(=O)O)CC6)C(C)(C)[C@@H]5CC[C@]43C)[C@@H]12` gave a Tmax of 4.06 h (human; 40 mg, multiple doses, once daily, patients).
For `CS(=O)(=O)n1cc2c(n1)CN([C@H]1CO[C@H](c3cc(F)ccc3F)[C@@H](N)C1)C2`, the Tmax was 2 h (male human; 100 mg, single dose, fasted).
`COc1cccc(-c2ccc(NC(=O)C3=C(C(=O)O)CCC3)c(F)c2)c1` gave a Tmax of 3.17 h (male human; 10 mg, single dose, fasted, healthy volunteers).
`CN(C)C/C=C/C(=O)Nc1cc2c(Nc3ccc(F)c(Cl)c3)ncnc2cc1O[C@H]1CCOC1` has a Tmax of 5 h (human; 20 mg, multiple doses, once daily, steady state, patients).
`C[C@@H]1CCC[C@H](n2cnc(-c3cc(Cl)ccc3-n3cc(Cl)nn3)cc2=O)c2cc(ccn2)-c2c(cnn2C(F)F)NC1=O` has a Tmax of 3 h (human; single dose, fasted, healthy volunteers).
`CNCc1ccc(-c2[nH]c3cc(F)cc4c3c2CCNC4=O)cc1` has a Tmax of 4.02 h (human; 600 mg, single dose, fasted).
`CNc1nc(Nc2ccc(-n3cnc(C)n3)c(OC)c2)nc2c1CC[C@H]2c1ccc(F)cc1` has a Tmax of 5 h (human; 300 mg, fed, healthy volunteers).
With `CCCOc1ccc([C@H]2CNC(=O)N2c2ccc3[nH]cnc3c2)cc1` the Tmax was 0.5 h (human; 10 mg, single dose, fasted).
For `CC(=O)N[C@H]1CC[C@H](NC(=O)CN2CCN(c3nncc(-c4ccc(C)cc4)n3)CC2)CC1`, the Tmax was 1 h (human; 50 mg, single dose, fasted, healthy volunteers).
`O=C(O)C[C@H](O)C[C@H](O)/C=C/c1c(C2CC2)nc2ccccc2c1-c1ccc(F)cc1` has a Tmax of 0.68 h (human; 2 mg, multiple doses, once daily).
The Tmax of `CNC(=O)c1ccc(-c2cnc3ncc(Cc4ccc5ncccc5c4)n3n2)cc1F` is reported as 3.93 h (human; 350 mg twice daily, multiple doses, steady state, patients).
`CC(C)n1nc(-c2ccc3oc(N)nc3c2)c2c(N)ncnc21` gave a Tmax of 2.6 h (human; 20 mg, multiple doses, patients).
The Tmax of `CC(C)(/C=C(\C#N)C(=O)N1CCC[C@@H](n2nc(-c3ccc(Oc4ccccc4)cc3F)c3c(N)ncnc32)C1)N1CCN(C2COC2)CC1` is reported as 1.1 h (human; 100 mg, single dose, healthy volunteers).
The Tmax of `Nc1ncc(-c2cnn(CCO)c2)c2scc(-c3ccc(NC(=O)Nc4cccc(F)c4)cc3)c12` is reported as 3.4 h (human; 240 mg, patients).
For `O=C(c1nc2n(n1)[C@H](c1ccccc1)C[C@@H]2F)C1CC1`, the Tmax was 4 h (human; 150 mg, single dose, fasted, healthy volunteers).
With `O=C(O)COC[C@H]1CC[C@H](COC(=O)N(c2ccccc2)c2ccc(Cl)cc2)CC1` the Tmax was 1 h (human; 30 µg, multiple doses, twice daily, steady state).
`CC#CC(=O)N1CCC[C@H]1c1nc(-c2ccc(C(=O)Nc3ccccn3)cc2)c2c(N)nccn12` has a Tmax of 0.735 h (human; 100 mg, single dose, fasted).
The Tmax of `O=C(c1cccnc1-c1ccncc1)N1CCC(O)(Cc2ccccc2)CC1` is reported as 0.33 h (human; 300 mg, multiple doses, once daily, healthy volunteers).

For quick reference, copied from above:
`Cc1[nH]c2ccccc2c1CCNCc1ccc(/C=C/C(=O)NO)cc1` has a Tmax of 4 h (human; 20 mg, single dose, fed).
For `CC(=O)N[C@H]1CC[C@H](NC(=O)CN2CCN(c3nncc(-c4ccc(C)cc4)n3)CC2)CC1`, the Tmax was 1 h (human; 50 mg, single dose, fasted, healthy volunteers).
`CNCc1ccc(-c2[nH]c3cc(F)cc4c3c2CCNC4=O)cc1` has a Tmax of 4.02 h (human; 600 mg, single dose, fasted).
